Experimental data of several laboratories.
Every numbered part comes from another study and shows a few of its results, in no order.

Set 1 — technique: protein-binding microarray; molecule type: double-stranded DNA, one strand shown; medium: in vitro; concentration: 940 nM top; notes: 60-bp whole probe; together with: salmon DNA 0.4 mg/ml; reference: random background probes; reading: higher = stronger binding; constant ends, left off below: GCCTAGCAC … GTCTTGATTCGCTTGACGCTGCTG
Target: Interferon regulatory factor 5, full length, phosphomimetic (IRF5, Homo sapiens, UniProt Q13568-2, residues 1-514, S451D/S453D/S456D/S462D)
| Strand | fitted relative affinity |
| --- | --- |
| TCAAACTTCGGCCTCTAACTGTGCTAG | 0.327 z-score |
| GACGCTATCAGTATCGAGACGTGCTAG | 2 z-score |
| TCCCCTCTCTTTCCAACTCTGTGCTAG | 1.12 z-score |
| TTAGATTTCAGTTCCTATTAGTGCTAG | 1.15 z-score |
| TGAGGACTGCTTATCCTTTAGTGCTAG | -0.417 z-score |
| GACGGTAGCCTTCTCCTGACGTGCTAG | 0.0332 z-score |
| GACGGTCTCGGACTGGGGACGTGCTAG | 0.747 z-score |
| TCAGATATCGGGTATCGATTAGTGCTA | 3.21 z-score |

Set 2 — technique: protein binding microarray; molecule type: double-stranded DNA, one strand shown; medium: in vitro; concentration: not given; reference: not given; reading: higher = stronger binding
Target: Histone acetyltransferase KAT6A, winged helix 1, GST fusion (KAT6A, Homo sapiens, UniProt Q92794, residues 1-85)
Notes: 8-mer, flanks averaged, mean of 2 arrays, mostly near background
Residues (chain): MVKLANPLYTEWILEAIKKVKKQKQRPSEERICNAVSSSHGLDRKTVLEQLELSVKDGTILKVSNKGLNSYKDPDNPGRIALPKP
| Strand | E-score |
| --- | --- |
| ACAAATCG | 0.0691 |
| CATTACTA | -0.0672 |
| CGACATTA | 0.0166 |
| AGTTTTAC | -0.0452 |
| TCAGGCGA | -0.0485 |
| AGTTCATG | -0.208 |
| CTTCAAAC | -0.0926 |
| ACGACTCT | -0.236 |

Set 3 — technique: RNA Bind-n-Seq; molecule type: RNA; medium: in vitro; concentration: 365 nM; reference: no-protein control; reading: higher = stronger binding
Target: RNA binding protein fox-1 homolog 2, RRM domain, GST-SBP tag (RBFOX2, Homo sapiens, UniProt O43251-10, residues 100-194)
Notes: natural RNA segment, single round, ends assumed
Constant ends, left off below: GGGAGUUCUACAGUCCGACGAUC … UGGAAUUCUCGGGUGCCAA
Construct (chain): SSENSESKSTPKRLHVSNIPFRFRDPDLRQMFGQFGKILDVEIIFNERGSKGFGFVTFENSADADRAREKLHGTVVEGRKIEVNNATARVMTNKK
| Strand | RBNS enrichment (R) |
| --- | --- |
| GUAUUAGACUAUGAGGUUGUGGUCUGGUAAGUCACUCAGCUGGCUCUGUUCAAAUGCAUUGAGAGACAUGACCUCAGAAUACCUAGUGUGAACAUUCUAAGUUGUACUGU | 0.594 |
| UAAAUUCUGGUAUACAUUGAAUUCAUUAUAAUUUGGGUGACUAGAACAACUUGAAGAUUGUAGCAAUAAGCUGGACUAGUGUCCUAAAAAUGGCUAACUGAUGAAUUAGA | 0.336 |
| UUUCUUCCAUGUUGCCCAGGCUGGUCUCGAACUCCUGGACUCAAGCAAUCCGCCCACCUUGACUUCCCAAAGUGCUGGGAUUAUGGGCGGGUGUGAGCCAUUGCGCCCAG | 0.364 |
| AUGGACCUAUCAAGAAUAUUAAAAAGCUUGGAAAUACCCUAUCCACUUUUGAAAAAUUAGAAUUCCUUUGCAUUCAGCAUGGACUCAGCCAGGAAUCUAUGGAGGAUUUU | 10.1 |
| GAAGACAUUUGUGAGAGAGGAGAUGAUUAGAAUUCUAGUAAUGUACUUUUAAGAUGUUACAGAUACAAAGAAAUGAUGUGGGUGUCAGGAGACUAAAGGAUGUUGAAGGC | 0.941 |
| CCCAACUUUCAGAACGUCCCUAGCCCUGUCUUCAUCCCUUCCCCUGCCAGUGCCUUACCACCUACCCAGGAAAGCAGGUCCUUGAGCCACCCAGGCCUUACAAUUUGAUC | 0.842 |
| UAACUGCUUCUUGGAGCUUUGGAAUAUUUUAUCCUGUAUUCUUGUUUGAAUUCCUCCUCUAUUUAAGAUAUAUACAUGGAAUCGAAGUGUUUAUGUAAUAGUUCUAUCCU | 0.457 |
| CCAGAGCACCCCAGUCUGUGACAAGGAGGACUGGCAUUGAGGGACACAGAACAGUGAAGGCUACAGGUCAUCAUCAAAGUCCUCUCCGGUUGUAAAGAGGUUGUGCAGUU | 0.418 |

Set 4 — read-out: enzyme activity; action: inhibitor; concentration: 20 µM
Target: Replicase polyprotein 1ab, polymerase (rep, Severe acute respiratory syndrome coronavirus 2, UniProt P0DTD1)
| Compound | inhibition [%] |
| --- | --- |
| NC(=O)c1cn([C@@H]2O[C@H](CO)[C@@H](O)[C@H]2O)c2ncnc(N)c2c1=O | 5.27 |
| O=C1C=CC(=O)C2=C1C1c3ccccc3C2c2ccccc21 | -5.44 |
| O=C(CCCN1CCC2(CC1)C(=O)N(Cc1cccc(F)c1)CN2c1ccccc1)c1ccc(F)cc1 | -4.72 |
| CCOC(=O)Nc1cc(-c2ccc(C)c(NS(C)(=O)=O)c2)nn2c(C)nnc12 | 7.95 |
| CC(=O)OCC(=O)[C@@]1(O)CC[C@H]2[C@@H]3CCC4=CC(=O)C=C[C@]4(C)[C@@]3(Cl)[C@@H](Cl)C[C@@]21C | -6.12 |
| CCCCCCCCCCCCc1ccc(S(=O)(=O)Nc2nncs2)cc1 | 7.35 |
| CN1C(C(=O)Nc2ccccn2)=C(O)c2sc(Cl)cc2S1(=O)=O | 2.9 |
| C[C@]12CC[C@H](O)C[C@H]1CC[C@@H]1[C@@H]2CC[C@]2(C)[C@@H](C3=CC(=O)OC3)CC[C@]12O | 1.99 |
| CC[C@H](/C=C/[C@@H](C)[C@H]1CC[C@H]2[C@@H]3CC=C4C[C@@H](O)CC[C@]4(C)[C@H]3CC[C@]12C)C(C)C | -3.73 |
| CCCCCCCCc1ccc(-c2ccc(C(=O)O)cc2)cc1 | -0.52 |
| COc1cc(C[C@H]2C(=O)OC[C@@H]2Cc2ccc(OC)c(OC)c2)ccc1O | -1.51 |
| CC1(COc2ccc(CC3SC(=O)NC3=O)cc2)CCCCC1 (centres unmarked) | -2.38 |
| O=c1c(O)c(-c2ccc(O)cc2O)oc2cc(O)cc(O)c12 | 95.7 |
| O=C(O)CCn1c2c(c3ccccc31)C[C@H](NS(=O)(=O)c1ccc(F)cc1)CC2 | -8.43 |
| COc1ccc2nc3c(c(N)c2c1)CCCC3 | -0.58 |
| CC(C)(C)NC(=O)[C@@H]1CN(Cc2cccnc2)CCN1C[C@@H](O)C[C@@H](Cc1ccccc1)C(=O)N[C@H]1c2ccccc2C[C@H]1O | -5.62 |
| C=C1CCN([C@H](C)[C@](O)(Cn2cncn2)c2ccc(F)cc2F)CC1 | -3.3 |
| CCC(=O)NO | 55.1 |
| CCn1nc(C(=O)O)c(=O)c2cc3c(cc21)OCO3 | -0.47 |
| COc1nc(C)nc(Cl)c1NC1=NCCN1 | -7.99 |
| CN1CC[C@H](c2c(O)cc(O)c3c(=O)cc(-c4ccccc4Cl)oc23)[C@H](O)C1 | 0.38 |
| O=P(O)(O)C(Cl)(Cl)P(=O)(O)O | -5.31 |
| Cc1ccc(C(C)C)c(OCC2=NCCN2)c1 | -0.6 |
| Cn1c(=O)c2nc[nH]c2n(C)c1=O | 19.8 |
| S=C(NCc1ccc2c(c1)OCO2)N1CCN(c2ncnc3c2oc2ccccc23)CC1 | 2.2 |

Set 5 — cell line: HEK-293T; read-out: pseudovirus infection; technique: FDA-approved drug library screen; organism: VSV pseudotyped with SARS-CoV-2 spike; concentration: 10 µM; time: 16 h; reference: vehicle-treated
| SMILES | GFP-positive cells [%] |
| --- | --- |
| C=C1c2cccc(O)c2C(=O)C2=C(O)[C@]3(O)C(=O)C(C(N)=O)=C(O)[C@@H](N(C)C)[C@@H]3[C@@H](O)[C@H]12 | 98.5 |
| CCc1c(C)[nH]c2c1C(=O)C(CN1CCOCC1)CC2 (centres unmarked) | 70.8 |
| COc1ccc2cc(CCC(C)=O)ccc2c1 | 77.4 |

Other studies, line by line
| Structure (SMILES) | organism | test | test system | conditions | quantity | value |
| --- | --- | --- | --- | --- | --- | --- |
| Sc1nnc(-c2ccccc2Cl)o1 | SARS-CoV-2 | cytopathic effect | Vero E6 | 10 µM | inhibition | -0.8% |

Some of these lines once more (set 5):
| SMILES | GFP-positive cells [%] |
| --- | --- |
| C=C1c2cccc(O)c2C(=O)C2=C(O)[C@]3(O)C(=O)C(C(N)=O)=C(O)[C@@H](N(C)C)[C@@H]3[C@@H](O)[C@H]12 | 98.5 |
| COc1ccc2cc(CCC(C)=O)ccc2c1 | 77.4 |
| CCc1c(C)[nH]c2c1C(=O)C(CN1CCOCC1)CC2 (centres unmarked) | 70.8 |
